Assay results collected from several papers.
Each numbered part is a random draw from the data of one study; scales do not carry over between parts.

Sample 1
Target: Replicase polyprotein 1ab, nsp13 helicase (rep, Severe acute respiratory syndrome coronavirus 2, UniProt P0DTD1)
Mode: inhibitor
Organism: SARS-CoV-2
Tested at: 20 µM
Measurement: inhibition
COC(=O)C1=C(C)NC(C)=C(C(=O)OC)C1c1ccccc1[N+](=O)[O-]: 105%
Cc1c(Cl)c(C)[n+]([O-])c(Cl)c1-c1noc(-c2cc(O)c(O)c([N+](=O)[O-])c2)n1: 94.8%
O=c1c(O)c(-c2cc(O)c(O)c(O)c2)oc2cc(O)cc(O)c12: 45.5%
N=C(N)NN=C1C=CC(=NNC(N)=S)C=C1: 97.9%
CO[C@H](C(=O)[C@@H](O)[C@@H](C)O)[C@@H]1Cc2cc3cc(O[C@H]4C[C@@H](O[C@H]5C[C@@H](O)[C@H](O)[C@@H](C)O5)[C@H](O)[C@@H](C)O4)c(C)c(O)c3c(O)c2C(=O)[C@H]1O[C@H]1C[C@@H](O[C@H]2C[C@@H](O[C@H]3C[C@](C)(O)[C@H](O)[C@@H](C)O3)[C@@H](O)[C@@H](C)O2)[C@H](O)[C@@H](C)O1: 96.5%
CCN(CC)C(=S)SSC(=S)N(CC)CC: 107%
COCCCOc1ccnc(C[S+]([O-])c2nc3ccccc3[nH]2)c1C (centres unmarked): 91.3%

Mixed results
CN(C)CCCN1c2ccccc2Sc2ccccc21
GFP-positive cells (HEK-293T; pseudovirus infection, FDA-approved drug library screen; VSV pseudotyped with SARS-CoV-2 spike; 10 µM, 16 h; reference: vehicle-treated): 50.5%

CC(C)[C@H](NC(=O)[C@@H](NC(=O)[C@H](CC(=O)O)NC(=O)[C@H](CO)NC(=O)[C@@H](N)CCC(N)=O)[C@@H](C)O)C(=O)N[C@@H](Cc1ccccc1)C(=O)N[C@@H](CC(=O)O)C(=O)N[C@@H](Cc1ccc(O)cc1)C(=O)N[C@@H](Cc1ccc(O)cc1)C(=O)O
IC50 (HLA class I histocompatibility antigen, A alpha chain, allele A*01:01 (Homo sapiens, UniProt P04439); biochemical): 0.46 nM

COc1ccc(-n2nc(C(F)(F)F)cc2-c2ccc(Cl)cc2)cc1
nuclear SOX9 intensity (mouse MPNST tumor cells; high-content immunofluorescence imaging, measured: nuclear SOX9; 10 µM, 12 h, mean of 2 replicates; reference: DMSO control, higher = more nuclear SOX9): 105 % of DMSO

CC1=C(/C=C/C(C)=C/C=C/C(C)=C/C(=O)Nc2ccc(O)cc2)C(C)(C)CCC1
inhibition (Severe acute respiratory syndrome coronavirus 2; viral replication, inhibitor; 5 µM): ~60%

CC/C=C\C/C=C\C/C=C/C/C=C\C/C=C\C/C=C\CCC(=O)OCC
inhibition (Replicase polyprotein 1ab, main protease (rep, Severe acute respiratory syndrome coronavirus 2, UniProt P0DTD1); enzyme activity, inhibitor; 20 µM, primary screen): 30.1%

CC(C)OC(=O)[C@H](C)N[P@](=O)(CO[C@H](C)Cn1cnc2c(N)ncnc21)Oc1ccccc1
GFP signal (Vesicular stomatitis virus; pseudovirus infection; concentration not given, SARS-CoV-2 spike pseudotype): 85%

COc1ccc(CCN2CCC(Nc3nc4ccccc4n3Cc3ccc(F)cc3)CC2)cc1
nuclei count (mouse MPNST tumor cells; high-content nuclear imaging, measured: cell number; 10 µM, 12 h, mean of 2 replicates; reference: plate mean, higher = more cells): -6.61 z-score

A few entries again (sample 1):
CO[C@H](C(=O)[C@@H](O)[C@@H](C)O)[C@@H]1Cc2cc3cc(O[C@H]4C[C@@H](O[C@H]5C[C@@H](O)[C@H](O)[C@@H](C)O5)[C@H](O)[C@@H](C)O4)c(C)c(O)c3c(O)c2C(=O)[C@H]1O[C@H]1C[C@@H](O[C@H]2C[C@@H](O[C@H]3C[C@](C)(O)[C@H](O)[C@@H](C)O3)[C@@H](O)[C@@H](C)O2)[C@H](O)[C@@H](C)O1: 96.5%
